Assay results of several laboratories.
Every numbered part comes from another study and shows a few of its results, in no order.

Block 1 — technique: protein binding microarray; form: double-stranded DNA, one strand shown; medium: in vitro; tested at: not given; reference: not given; direction: higher = stronger binding; quantity: E-score
Target: Histone acetyltransferase KAT6A, winged helix 1, GST fusion (KAT6A, Homo sapiens, UniProt Q92794, residues 1-85)
Setting: 8-mer, flanks averaged, mean of 2 arrays, mostly near background
Target sequence (chain): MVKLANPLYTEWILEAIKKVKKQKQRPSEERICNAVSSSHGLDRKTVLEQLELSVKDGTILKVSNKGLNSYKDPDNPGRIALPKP
Strand = AACATGGT; value = -0.17
Strand = CTCTAAGC; value = 0.0978
Strand = TACCGGTA; value = 0.272
Strand = AAGTGAAA; value = -0.0696
Strand = AGCTGGAA; value = -0.178
Strand = ATTTGTTA; value = -0.0102
Strand = GCTCCGTA; value = 0.297
Strand = GGTTGTGA; value = -0.1
Strand = GAATGCGC; value = 0.339
Strand = TACCTTAA; value = 0.0228
Strand = CCTTGATA; value = -0.213
Strand = ATCGACGC; value = 0.107
Strand = CCCTCGGC; value = 0.237
Strand = TAAGTCTA; value = -0.00984
Strand = AGCCTTCA; value = -0.152
Strand = ACAGTACG; value = 0.0377
Strand = ACACTATG; value = -0.014
Strand = AGTTGCAC; value = -0.202

Block 2 — technique: RNA Bind-n-Seq; form: RNA; medium: in vitro; tested at: 1 µM; setting: whole 134-nt RNA, ends assumed; with: 150 mM KCl; reference: input library; direction: higher = stronger binding; quantity: log2 enrichment
Target: Ras GTPase-activating protein-binding protein 1, RRM domain (G3BP1, Homo sapiens, UniProt Q13283)
Sequence of UniProt Q13283 (whole entry, looked up): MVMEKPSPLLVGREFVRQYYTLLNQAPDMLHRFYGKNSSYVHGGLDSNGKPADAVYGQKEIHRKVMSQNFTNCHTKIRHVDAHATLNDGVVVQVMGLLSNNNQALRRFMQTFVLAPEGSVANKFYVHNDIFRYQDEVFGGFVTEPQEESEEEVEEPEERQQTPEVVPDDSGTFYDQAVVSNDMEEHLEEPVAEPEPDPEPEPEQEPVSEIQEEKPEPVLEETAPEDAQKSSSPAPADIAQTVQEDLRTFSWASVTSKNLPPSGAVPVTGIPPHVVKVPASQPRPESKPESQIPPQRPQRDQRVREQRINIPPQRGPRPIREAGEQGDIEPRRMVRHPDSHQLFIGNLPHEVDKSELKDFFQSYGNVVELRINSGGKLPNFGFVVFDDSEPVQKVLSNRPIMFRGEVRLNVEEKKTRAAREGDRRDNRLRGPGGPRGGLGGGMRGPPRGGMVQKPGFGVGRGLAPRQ
Strand = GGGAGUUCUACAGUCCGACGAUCGGAGGAAGUAAAAACAAAUGGAAAUGCUUCGGAUAGUGGCAGGGGUGGGGGUUGCUAAGGAAAGGGUGGGAUGGGAGUGGGUAAAGAGUUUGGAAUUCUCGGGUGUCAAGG; value = 1.21
Strand = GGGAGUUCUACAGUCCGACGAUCCAAGUCCUGUGCUACACAUCGUAUGUACCGAAUCGGUGGAAAAAAAGGUUUUUGGAAAGUAUUAUGUUACGCCGUUCGGAUCUGCACUUCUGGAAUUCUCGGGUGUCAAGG; value = -0.257
Strand = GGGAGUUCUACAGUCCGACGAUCUCCUGUGCUACACAUCGUAUGUACCGAAUCGGUUUUUUUGGUUUUUUUGGAAAAAAAGGAAAGUAUUAUGUUACGCCGUUCGGAUCUGCAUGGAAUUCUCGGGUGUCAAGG; value = -0.207
Strand = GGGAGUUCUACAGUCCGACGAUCCCUGUGCUACACAUCGUAUGUACCGAAUCGGGAAAAAAGGGGAAAAAAGGGGAAAAAAGGAAAGUAUUAUGUUACGCCGUUCGGAUCUGCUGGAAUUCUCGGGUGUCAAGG; value = -0.0302
Strand = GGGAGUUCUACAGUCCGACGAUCCACAGACAACACGCACCCACACAGACACAGAGGGAAGGGGUUGGGAUGUGGACAGGGUGCACAGCAGGGCGGGGUAGGACCCCAGCCCCUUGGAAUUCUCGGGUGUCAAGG; value = 0.14
Strand = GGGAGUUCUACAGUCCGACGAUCCGCAGACAACACGCACCCACACAGACACAGAGGGAAGGGGUUGGGAUGGGGACAGGGUGCACAGCAGGGCGGGGUAGGACCCCAGCCCCUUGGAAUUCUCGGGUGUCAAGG; value = -0.00805
Strand = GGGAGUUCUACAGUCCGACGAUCAGUCCUGUGCUACACAUCGUAUGUACCGAAUCGGGUUUGGGAAAAAGGGAAAAAGGGAAAGUAUUAUGUUACGCCGUUCGGAUCUGCACUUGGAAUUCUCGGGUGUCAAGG; value = 0.464
Strand = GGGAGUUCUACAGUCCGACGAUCCAAGUCCUGUGCUACACAUCGUAUGUACCGAAUCAAAUUUAAACCCAAACCCAAAAAAGUAUUAUGUUACGCCGUUCGGAUCUGCACUUCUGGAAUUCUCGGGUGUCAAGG; value = -0.0722
Strand = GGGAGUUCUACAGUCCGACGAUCCUCAAGUCCUGUGCUACACAUCGUAUGUACCGAAUCGGGGAGGGGAGGGGAGGAAAGUAUUAUGUUACGCCGUUCGGAUCUGCACUUCCAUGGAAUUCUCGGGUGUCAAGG; value = 0.0861

Block 3 — technique: aptamer microarray, sandwich; form: DNA with 2'F-ANA; medium: in vitro; tested at: 200 nM; with: Cy3 exosite-II aptamer, 400 nM; direction: higher = stronger binding; quantity: mean fluorescence intensity; strand: GGTTGGTGTGGTTGG
Target: Prothrombin, mature alpha-thrombin (F2, Homo sapiens, UniProt P00734)
Setting: whole 15-mer aptamer, many near background
Modification = 2'F-ANA at 1 3 7 10 12 13; value = 113 a.u.
Modification = 2'F-ANA at 6 7 9 10 12 13 15; value = 170 a.u.
Modification = 2'F-ANA at 1 2 3 6 7 8 9 11; value = 431 a.u.
Modification = 2'F-ANA at 1 2 3 4 5 6 7 9 10 15; value = 54.3 a.u.
Modification = 2'F-ANA at 3 5 6 8 15; value = 166 a.u.
Modification = 2'F-ANA at 1 3 4 5 7 8 10 12 15; value = 92 a.u.
Modification = 2'F-ANA at 4 6 7 8 9 11 12; value = 463 a.u.
Modification = 2'F-ANA at 1 2 3 4 6 7 9 13 15; value = 107 a.u.
Modification = 2'F-ANA at 6 10 11 13; value = 177 a.u.
Modification = 2'F-ANA at 1 2 3 4 8 9 10 11 13; value = 54 a.u.
Modification = 2'F-ANA at 1 2 3 8 10 11 12 13 14; value = 94 a.u.
Modification = 2'F-ANA at 2 4 5 6 7 8 11 15; value = 77.1 a.u.
Modification = 2'F-ANA at 3 4 15; value = 782 a.u.
Modification = 2'F-ANA at 1 4 5 6 7 9; value = 62.4 a.u.
Modification = 2'F-ANA at 1 2 7 8 10 11 12 13; value = 61.1 a.u.
Modification = 2'F-ANA at 1 2 7 9 12 13 14; value = 84.4 a.u.
Modification = 2'F-ANA at 1 2 5 6 8 9 11 12 14; value = 51 a.u.
Modification = 2'F-ANA at 1 3 5 6 7 14; value = 46.6 a.u.
Modification = 2'F-ANA at 1 7 9 10 12 15; value = 73.7 a.u.
Modification = 2'F-ANA at 1 4 8 9 10 11; value = 52.6 a.u.
Modification = 2'F-ANA at 3 7 9 11; value = 1110 a.u.
Modification = 2'F-ANA at 1 5 6 7 8 9 12 15; value = 123 a.u.
Modification = 2'F-ANA at 2 5 6 8 10 11 12 13; value = 48.1 a.u.
Modification = 2'F-ANA at 1 3 5 6 7 9 10 13 14; value = 46.6 a.u.

Block 4 — technique: RNA Bind-n-Seq; form: RNA; medium: in vitro; tested at: 365 nM; reference: no-protein control; direction: higher = stronger binding; quantity: RBNS enrichment (R)
Target: RNA binding protein fox-1 homolog 2, RRM domain, GST-SBP tag (RBFOX2, Homo sapiens, UniProt O43251-10, residues 100-194)
Setting: natural RNA segment, single round, ends assumed
Residues (chain): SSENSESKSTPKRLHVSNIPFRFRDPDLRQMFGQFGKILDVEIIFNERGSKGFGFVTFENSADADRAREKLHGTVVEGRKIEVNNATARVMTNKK
Strand = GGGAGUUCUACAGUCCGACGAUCUAAUCCUUUCUGCCGACCCCUAGUUCCCUCUGCUCAGCCAAGCUUGUUAUCAGCUUUCAGGGCCAUGUUCACAUUAGAAUAAAAGGUAGUAAUUAGAACACUCUGGCUCCUGGAAUUCUCGGGUGCCAA; value = 0.322
Strand = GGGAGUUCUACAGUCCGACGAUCAUAAAUUCUAAGGAGGUUUCUAAUUUUGUAAUUGUUAAAAAUAGAGUUAAUUUUGACUUUGUUAGAUGAGGGAGGAAAACUCAACUGUUUCUCUUUGUUAUCUAAAUGUUUGGAAUUCUCGGGUGCCAA; value = 1.02
Strand = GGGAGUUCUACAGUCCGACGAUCUACUCUGGUAUGAUUGGUUCUGUUGGAAACUGAUUUAGGUGAAUACAGACAUACCAUAGGGGUAAGGAACUGAAUGCUGUAAAGGAGUCGGUUCUCAUCUCAGGUUGGUAUGGAAUUCUCGGGUGCCAA; value = 0.281
Strand = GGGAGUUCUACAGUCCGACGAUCUACAGCUGGAGGGUCAGGAACUGUUACCUUCCUUCCCCUUGGCAUUAAUAAAUUUAAGUUAAUCCUUUCCAUUCUUCCUAUGUUCUGUUUCCUUAAACACAAUAUAAGUAUGGAAUUCUCGGGUGCCAA; value = 0.262
Strand = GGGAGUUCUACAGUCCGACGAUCCAAGUAACAUGAGCGGAUAAAAAGAGACUUGUUUGUGCUAGAAAUGAGGGUCUAUGCUAUGAGGGGGUCCAAGACUCUGGCGAAAUGUGCUUUUUCAUCAAUGGAGAAAUUGGAAUUCUCGGGUGCCAA; value = 1.62
Strand = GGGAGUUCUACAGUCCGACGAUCGAUGGAAGCCUCCCAGGCGCGCGAGGCUUCCCGGGCGCUCUGAGGCUUCUUUCUCCUCGCCCGCUCCCCUGGGCUCAGCUCGGACGCUGCAGUUAUUGACCUCCCGGUCCUGGAAUUCUCGGGUGCCAA; value = 0.39
Strand = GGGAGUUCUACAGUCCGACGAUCGACAAGGGCGUCCCCAAGAGACACCCUCACCGUACCAAAGAGCUGAGCUGCUUCUGGGUCUCACGGACCUCCUUGCAGCCCCCUUGCCCUUUCCUUGCCUUGUGUCCGGAUGGAAUUCUCGGGUGCCAA; value = 0.343
Strand = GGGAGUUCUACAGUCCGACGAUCCUCGACUUAGGAUGGACAGACACAGAGGGGUGCCUUCUAUGGUGCCAGCCUGUCAUGCCCAGUCCCUCCCACCAGUGCCCUGGGCCUGUCCUGGGUCCCCUGACACAUUUUGGAAUUCUCGGGUGCCAA; value = 0.157
